Results gathered from unrelated publications.
Each line is one published result; not all experiments were run side by side.
Cell line: K562

O=C(CCc1ccc(O)cc1)c1c(O)cc(O)cc1O  IC50 (cell viability): 59 µM
CO[C@H]1C(=O)c2ccc(O)cc2O[C@@H]1c1ccc(O)c(O)c1 (relative stereo)  IC50 (cell growth or viability, MTT; 72 h): 74.4 µM
O=C(CCc1ccc(O)cc1)c1c(O)cc(O)cc1OC1OC(CO)C(O)C(O)C1O (centres unmarked)  IC50 (NF-κB activity, inhibitor, luciferase; TNF-stimulated): > 200 µM
Cc1nc(Nc2ncc(C(=O)Nc3c(C)cccc3Cl)s2)cc(N2CCN(CCOC(=O)[C@@H](N)CCCNC(=N)N)CC2)n1  IC50 (cell growth or viability, MTT; 72 h): < 5.12e-05 µM
COc1ccc(/C=C/C(=O)c2ccc(OC)cc2)cc1  IC50 (NF-κB activity, inhibitor, luciferase; TNF-stimulated): > 200 µM
COc1ccc(/N=N/C(=S)N2CCOCC2)cc1  IC50 (cell growth or viability, resazurin; 48 h): > 50 µM
COc1ccc(CCC(=O)c2c(O)cc(OC)cc2O)cc1  IC50 (cell viability): 31 µM
CC(C)=CCc1c(O)c(CC=C(C)C)c2occ(-c3ccc(O)c(O)c3)c(=O)c2c1O  IC50 (cell growth or viability, MTT): > 100 µM
COc1ccc(C(C)(O)C(C)(C)C(=O)O)cc1 (centres unmarked)  IC50 (cell growth or viability; 72 h): > 200 µM
Cc1nc(Nc2ncc(C(=O)Nc3c(C)cccc3Cl)s2)cc(N2CCN(CCOC(=O)CCCCCCCCCCN)CC2)n1  IC50 (cell growth or viability, MTT; 72 h): < 5.12e-05 µM
NC(=S)c1ccc(O)cc1  IC50 (cell growth or viability, CCK-8; 72 h): > 200 µM
CC(C)=CCCC(C)C1CCC2(C)C3=C(CCC12C)C1(C)CCC(=O)C(C)(C)C1CC3 (centres unmarked)  IC50 (cell growth or viability, SRB): 13.6 µM
COc1cc2c(NC3CCN(C(C)C)CC3)nc(N3CCC(F)(F)CC3)nc2cc1OCCCN1CCCC1  IC50 (cell growth or viability, CCK-8; 7 days): > 10 µM
O=C1c2ccc(O)cc2OC1(O)Cc1ccc(O)c(O)c1 (centres unmarked)  IC50 (cell growth or viability, MTT; 72 h): 129 µM
COc1ccc(/N=N/C(=S)N2CCCC2)cc1  IC50 (cell growth or viability, resazurin; 48 h): 7 µM
COc1ccc(C[C@H]2COC(=O)[C@@H]2Cc2ccc(OCCCCCCCCC(=O)NO)c(OC)c2)cc1OC  IC50 (cell growth or viability, CCK-8; 48 h): 3.03 µM
O=C(/C=C/c1ccccc1)c1ccc(O)cc1  IC50 (NF-κB activity, inhibitor, luciferase; TNF-stimulated): 28 µM
Cc1nc(Nc2ncc(C(=O)Nc3c(C)cccc3Cl)s2)cc(N2CCN(CCOC(=O)[C@@H](N)CS)CC2)n1  IC50 (cell growth or viability, MTT; 72 h): 0.000658 µM
O=C(/C=C/c1ccc(O)cc1)c1ccccc1  IC50 (cell viability): 31 µM
COc1ccc(C[C@H]2COC(=O)[C@@H]2Cc2ccc(OCC(=O)Nc3ccc(C(=O)NO)cc3)c(OC)c2)cc1OC  IC50 (cell growth or viability, CCK-8; 48 h): > 5 µM
CCCCn1cc(C(=O)O)c(=O)c2cc(F)c(Nc3ccccc3OC)c(N)c21  IC50 (cell growth or viability, SRB; 72 h): 3.47 µg/mL
COc1ccc(CN2C[C@H](O)[C@H](O)[C@@H]2CO)cc1  IC50 (cell growth or viability, MTS; 72 h): 192 µM
COc1cc2c(cc1O)[C@]1(O)C(=O)c3c(O)cc4c(c3O[C@@H]1CO2)C=CC(C)(C)O4  IC50 (cell growth or viability, MTT): 25.8 µM
Cc1cccc(C)c1Nc1nn(C)c2nc(Nc3ccc4c(c3)CN(CC3CCN(c5ccc6c(c5)C(=O)N(C5CCC(=O)NC5=O)C6=O)CC3)CC4)ncc12 (centres unmarked)  IC50 (cell growth or viability, ATP luminescence; 5 days): ~0.0022 µM
COc1cc(/C=C/C(=O)c2ccc(O)cc2O)ccc1O  IC50 (NF-κB activity, inhibitor, luciferase; TNF-stimulated): 38 µM
OC[C@H]1[C@@H](O)[C@@H](O)CN1Cc1ccc(Br)cc1  IC50 (cell growth or viability, MTS; 72 h): > 200 µM
CCCCn1cc(C(=O)O)c(=O)c2cc(F)c(Nc3cc(OC)c(OC)c(OC)c3)c(N)c21  IC50 (cell growth or viability, SRB; 72 h): 8.67 µg/mL
O=C(/C=C/c1ccc(O)c(O)c1)c1ccc(O)cc1O  IC50 (cell viability): 13 µM
CCC(C)n1c(C(=O)Nc2cnc(C(=O)NC)n(CC(C)C)c2=O)ncc(NC(=O)c2ncc(NC(=O)c3ccccc3)c(=O)n2Cc2ccc(OC)cc2)c1=O (centres unmarked)  IC50 (cell growth or viability, ATP luminescence; 72 h): 1.3 µM

Excerpt of the above:
COc1ccc(/N=N/C(=S)N2CCCC2)cc1  IC50 (cell growth or viability, resazurin; 48 h): 7 µM
Cc1nc(Nc2ncc(C(=O)Nc3c(C)cccc3Cl)s2)cc(N2CCN(CCOC(=O)[C@@H](N)CCCNC(=N)N)CC2)n1  IC50 (cell growth or viability, MTT; 72 h): < 5.12e-05 µM
NC(=S)c1ccc(O)cc1  IC50 (cell growth or viability, CCK-8; 72 h): > 200 µM
COc1cc2c(cc1O)[C@]1(O)C(=O)c3c(O)cc4c(c3O[C@@H]1CO2)C=CC(C)(C)O4  IC50 (cell growth or viability, MTT): 25.8 µM
